Assay results pooled from the literature.
A part holds a random share of what one study measured. Changes are numbered by the printed parent chain.

Series 1
Target: RNA binding protein fox-1 homolog 2, RRM domain, GST-SBP tag (RBFOX2, Homo sapiens, UniProt O43251-10, residues 100-194)
Technique: RNA Bind-n-Seq
Form: RNA
Medium: in vitro
Tested at: 365 nM
Notes: natural RNA segment, single round, ends assumed
Reference: no-protein control
Direction: higher = stronger binding
Endpoint: RBNS enrichment (R)
Constant ends, left off below: GGGAGUUCUACAGUCCGACGAUC … UGGAAUUCUCGGGUGCCAA
Construct (chain): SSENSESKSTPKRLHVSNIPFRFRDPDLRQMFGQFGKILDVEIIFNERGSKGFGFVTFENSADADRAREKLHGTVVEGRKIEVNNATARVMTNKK
UCUUCACUUUCGCUUGGUCCCAGCAGGACCUGAUGGCCACGCGUGCCUUGGCCACAGGAAGCUGCCGAGACUGGCCAUGUGGCUGGGCUAGGCUGUGCCCUCCCUCUCCC: 0.228
UGGAAAUAAUCUGCAUCUGUUAAACCUGCAGAAGUUUUUUAAUGCCACUUUAACACUAAUGCACUGACAGAUUCUAAAUAUUUUGUGAGAAAUGUUGAAAUGUUUAACCU: 0.397
UUAAAAUCGCUUGUAAAUGAGGGCAUACAAGCAUUUGCAACAAAUAUUCAAAUAGAGGCUCACAGCGGCAUAAGCUGGACUUUGUCGCCACUAGAUGACAAGAUGUUAUA: 0.675
GUUUUAAUGUAUUUUAUUGAUUAUCUUCCCGGUUAGUCGAUUAUUUUUCCUCCUCCAAUUGUUUUACCAGACCAGAGAGAGAAAUAAAAACCUCUCCUCACACUUGGUAU: 0.278
GCAGAAUCCGAUGUGACCCACCAUUAGGGAGUCUGCAUCUUGGAAGAGUUGGAAAUAACCCUUUAACAUCAACAUGCUUCAAAGACUUUUUGCCUUUGGCCUAGUAAGAU: 0.404
UCUGAAUUUUGAAAAACCACAAAGCUACAAACUGACCCUCUUUUUUUUUUGAGACGGAGUUUUGCUCUUGUUACCCAGGCUGGAGUGCAGUGGCGUGAUCUUGGCUCACU: 0.287
AGUUUAUUUACUAUGCAAUAGACAUUCAUUGUUUUGUAUCCAGCUAGCUUUGGUUUAAUAUGCCACUGCUUUGUCUUUCUGUUACACAUACAGUUUUGAUUUAUUUACAA: 0.387
CUCCCAGGCAUUUUCCAUUCCUGGAAAGGCUCCUUUGGGGUUCAGAAUCCAGAGACCAAACCCUGACCCACCUCCUUCCUUUCCUCCAGCCCACGCUGGUCUGUCCCCAU: 0.453
UUAUAUGUGUGUUUAACAGGAUGAGAGCAUGGCGAGCUUGUAGCACACCAGAGGUUGUAGACCUAUAUCUGGUAUCCAGAACCUGACAGGGAAACAGUUCUUGGUCCCCC: 1.06
AAAUGCCAGUUUUCCUCCCCCGCCCUUGUUUUCCAUAAAACAUAUUUAUAUAUUGUGAUGAGGAGUACUUUCUGAAGAGUACUUCGUAUUUUUUUUUAAUUGCCUUGUUU: 0.54
UCUGACUUCUCAGCCUCAUUUGGACUAAAAAAAGAAAGCAGAAAUCCAUGAACACAUUGCUUCUCGGCCUUUUGGCUAAGAUCAAGUGUAGAAAUCCAUGAACACUAAAG: 0.188
CAGGGACAGAAGUACCAUCCACUUUCAAGUCCAGCUCCUUCCUAAGAGAUUCUUCCACCUUACUCUGCAGCUGCCUCUGGAAGAACUUUGGGCUGCUGGGGCUGAGCUGU: 0.476

Series 2
Target: CCNB1, cyclin fold, Cln2 fusion (human)
Technique: yeast growth competition, sequencing
Medium: yeast
Notes: weak parent motif
Reference: not given
Direction: higher = stronger binding
Endpoint: normalised enrichment score
Starting sequence: RBL1 docking peptide (human); GSAKRRLFGEDPP
P12D: 0.666
K4Q: -0.325
K4L: 0.355
R5Q: 0.351
K4M: 0.134
S2A: 1.11
F8A: 0.0395
G1W: 1.16
F8V: 0.602
R5A L7A: 0.187
D11T: 1.17
G9H: 0.24
G1N: 1.06
A3L: 0.749
K4V: 1.69
R6G: 0.523
A3D: -0.379

Series 3
Target: Histone acetyltransferase KAT6A, winged helix 1, GST fusion (KAT6A, Homo sapiens, UniProt Q92794, residues 1-85)
Technique: protein binding microarray
Form: double-stranded DNA, one strand shown
Medium: in vitro
Tested at: not given
Notes: 8-mer, flanks averaged, mean of 2 arrays, mostly near background
Reference: not given
Direction: higher = stronger binding
Endpoint: E-score
Construct (chain): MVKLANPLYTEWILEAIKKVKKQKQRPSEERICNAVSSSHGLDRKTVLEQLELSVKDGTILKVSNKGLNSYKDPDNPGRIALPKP
GATATTAC: 0.0628
CCCTCTAC: -0.235
CTTGTGTA: -0.132
GTACATAA: 0.0535
ACCTAGTA: -0.0367
AGGTGCGA: -0.0793
AGCAGAGC: -0.205
ATGTATCA: -0.143
AATGCACT: -0.11
ATCAAGCC: 0.0309
AGTTAATG: -0.239
AATTCAAA: -0.254
GCCCACAA: -0.153
AGCTTAAA: -0.0741
CCGATTTA: 0.0305
CTAGACTA: -0.00539
CACACGGC: 0.345

Series 4
Target: Ras GTPase-activating protein-binding protein 1, C-terminal RGG region (G3BP1, Homo sapiens, UniProt Q13283)
Chain of UniProt Q13283 (whole entry, looked up): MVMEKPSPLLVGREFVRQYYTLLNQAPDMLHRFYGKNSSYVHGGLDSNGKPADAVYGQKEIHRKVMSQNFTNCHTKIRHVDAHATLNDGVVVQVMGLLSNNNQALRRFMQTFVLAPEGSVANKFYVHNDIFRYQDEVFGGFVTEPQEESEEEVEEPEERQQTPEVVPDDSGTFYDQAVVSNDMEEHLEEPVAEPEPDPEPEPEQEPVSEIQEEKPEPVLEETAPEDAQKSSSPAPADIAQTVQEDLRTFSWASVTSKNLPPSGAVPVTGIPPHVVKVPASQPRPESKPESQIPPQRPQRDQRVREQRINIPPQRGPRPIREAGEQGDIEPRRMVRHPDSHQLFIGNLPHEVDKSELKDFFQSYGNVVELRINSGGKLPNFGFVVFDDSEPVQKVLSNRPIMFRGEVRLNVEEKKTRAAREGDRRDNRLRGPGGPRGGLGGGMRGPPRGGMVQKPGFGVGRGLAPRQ
Technique: RNA Bind-n-Seq
Form: RNA
Medium: in vitro
Tested at: 1 µM
Notes: whole 134-nt RNA, ends assumed
With: 150 mM KCl
Reference: input library
Direction: higher = stronger binding
Endpoint: log2 enrichment
Constant ends, left off below: GGGAGUUCUACAGUCCGACGAUC … UGGAAUUCUCGGGUGUCAAGG
ACCAUGCAGGUGGGCAUCUUUGGGAAGUGGGGCAAGGGGGGGAUAGGGAGGGGGGUAACACUUUGGAAACAGGUGGUCCCAGGUCGUUUC: -1.34
AAGUCCUGUGCUACACAUCGUAUGUACCGAAUCGGGUUUGGGAAAAAAAGGGAGGGAAAGUAUUAUGUUACGCCGUUCGGAUCUGCACUU: 1.24
UAACUUUAGAGGAGGAUCUGAUGGAUAUGGCAGUGGACGUGGAUUUGGGGAUGGCGAUAAUGGGUAUGGAGGAGGACCUGGAGGUGGCAA: -1.14
ACAAGUGGAGGAGAAGAACUUAGAAGAACUAGAGGAGAAAUCUACUACUCCUCCUCCGGCAGAACCUGUUUCUCUGCCACAAGAACCACC: -0.794
GCAGGAAGUAAAAACAAAUGGAAAUGCUUCGGAUAGUGGCAGGGGUGGGGGUUGCUAAGGAAAGGGUGGGAUGAGAGUGGGUAAAGAGUU: 1.77
CCCAUGCAGGUGGGCAUCUUUGGGAAGUGGGGCAAGGGGGGGAUAGGGAGGGGGGUAACACUUUGGGAACAGGUGGUCCCAGGUCGUUUC: -1.02
UCCUCAAGUCCUGUGCUACACAUCGUAUGUACCGAAUCGGGGUGGUGGGUGGAAAGUAUUAUGUUACGCCGUUCGGAUCUGCACUUCCAG: 0.258
UCAAGUCCUGUGCUACACAUCGUAUGUACCGAAUCGGGUGGGUUUGGGUUUGGGAAAGUAUUAUGUUACGCCGUUCGGAUCUGCACUUCC: 1.73
UUGGCUCGAGAGAUUGAAUCAAGCCCCCAGUACCGCCUACGGAUCGCCAUGGAGAACGACGAUGGGCGCACUGAAGAGGAGAAGCACAGU: -1.29
CUCAAGUCCUGUGCUACACAUCGUAUGUACCGAAUCGGAAAAAAAGGAGGUGGAAAGUAUUAUGUUACGCCGUUCGGAUCUGCACUUCCA: -1.36
CACAGGCAACACGCACCCACACAGACACAGAGGGAAGGGGUUGGGAUGGGGACAGGGUGCACAGCAGGGCGGGGUAGGACCCCAGCCCCU: -0.42
UGGGAGGUGGAUUUUGUUUAUUUUUUUAGCUCGUUUCCAGGGGUGGGAAUUUUUUUUUAAUAUGUGUCAUGAAUAAAGUUGUUUUUGAAA: 3.64
UCCUGUGCUACACAUCGUAUGUACCGAAUCAAAUUUUUAAACCCCCAAACCCCCCCAAAAAAGUAUUAUGUUACGCCGUUCGGAUCUGCA: -0.579
AAGUCCUGUGCUACACAUCGUAUGUACCGAAUCGGAAAAAGGAAAAAGGAAAAAGGGAAAGUAUUAUGUUACGCCGUUCGGAUCUGCACU: -1.92

Series 5
Target: Hepatocyte nuclear factor 3-beta, forkhead domain (FOXA2, Homo sapiens, UniProt Q9Y261, residues 142-269)
Technique: protein-binding microarray
Form: double-stranded DNA, one strand shown
Medium: in vitro
Tested at: not given
Notes: k-mer, scored over probes, only values ≥0.25
Direction: higher = stronger binding
Endpoint: E-score
Residues (chain): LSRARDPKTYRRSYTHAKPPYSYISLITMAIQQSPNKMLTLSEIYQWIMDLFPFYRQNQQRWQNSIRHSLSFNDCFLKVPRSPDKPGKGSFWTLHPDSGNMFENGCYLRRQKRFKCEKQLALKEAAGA
ATAATACC: 0.319
ATTTGTTC: 0.369
AAAATGGT: 0.254
ACATTACG: 0.276
AACATTGT: 0.347
ATAATATA: 0.388
ATATATGC: 0.298
AGTATGTA: 0.263
TCATAACA: 0.349
ATATCAAA: 0.27
ATACATAC: 0.342
TACAACCA: 0.288
AATGTGTA: 0.308
ATAAGGAT: 0.26
ACAACATG: 0.303
CTTGTTTA: 0.297
ATGTAGTA: 0.296
GTATCAAA: 0.28
ACAGTTAT: 0.272
AAACAAAT: 0.341
AGATAAAT: 0.256
ATAAACGA: 0.344
ATTTGTCA: 0.265
TCATTAAA: 0.286
TACTACGA: 0.255

Series 6
Target: Runt-related transcription factor 1, full length (RUNX1, Homo sapiens, UniProt Q01196-8, residues 1-480)
Technique: protein-binding microarray
Form: hairpin DNA
Medium: in vitro
Tested at: not given
Notes: whole hairpin DNA, median over replicate spots
Reference: not given
Direction: higher = stronger binding
Endpoint: median fluorescence
CTCAGTTCTGTGCGCTGGACTCCTGTCCAGCGCACAGAACTGAGACACTC (5mC at 13 31): 1760 a.u.
GAGGCCTGTCGCGGTTGGCCTCCTGGCCAACCGCGACAGGCCTCACACTC (5mC at 10 12 32): 1870 a.u.
GAGGCCTGTCGCGGTTGGCCTCCTGGCCAACCGCGACAGGCCTCACACTC (5mC at 19): 2700 a.u.
CTCAGTCCTGTGGGCTGGACTCCTGTCCAGCCCACAGGACTGAGACACTC (5mC at 7): 1870 a.u.
GAGGCCTGTTGCGGTTGGCCTCCTGGCCAACCGCAACAGGCCTCACACTC (5mC at 37): 6220 a.u.
GAGGCCTGTTGCCGTTGGCCTCCTGGCCAACGGCAACAGGCCTCACACTC (5mC at 13): 1630 a.u.
GAGGCCTGTTGCGGCTGGCCTCCTGGCCAGCCGCAACAGGCCTCACACTC (5mC at 15): 2320 a.u.
CTCAGTTCTGTGGCGTGGACTCCTGTCCACGCCACAGAACTGAGACACTC (5mC at 14): 2060 a.u.
GAGGCCCAACGGCAACAGCCTCCTGGCTGTTGCCGTTGGGCCTCACACTC: 1690 a.u.
GAGGCCTGTCGCGGTTGGCCTCCTGGCCAACCGCGACAGGCCTCACACTC (5mC at 12 34): 2240 a.u.
GAGGCCTGTTGCGGTTGGCCTCCTGGCCAACCGCAACAGGCCTCACACTC (5mC at 28): 6760 a.u.
GAGGCCTGCGGCGGTTGGCCTCCTGGCCAACCGCCGCAGGCCTCACACTC (5mC at 9): 2780 a.u.
GAGGCCAGTTGCGGTTGGCCTCCTGGCCAACCGCAACTGGCCTCACACTC: 6150 a.u.
GAGGCCTGTTGTCGTTGGCCTCCTGGCCAACGACAACAGGCCTCACACTC (5mC at 13 31): 1770 a.u.
CTCAGTTCTGTGGGCTCGACTCCTGTCGAGCCCACAGAACTGAGACACTC (5mC at 17): 1930 a.u.
GAGGCCCAACCGCCGCAGCCTCCTGGCTGCGGCGGTTGGGCCTCACACTC (5mC at 30): 3000 a.u.
GAGGCCTGTCGCGGCGGGCCTCCTGGCCCGCCGCGACAGGCCTCACACTC (5mC at 15): 2060 a.u.
GAGGCCTGTCGCGGTTGGCCTCCTGGCCAACCGCGACAGGCCTCACACTC (5mC at 27): 2700 a.u.
CTCAGTTCTGTGGGCTGGACTCCTGTCCAGCCCACAGAACTGAGACACTC (5mC at 35): 1990 a.u.
GAGGCCTGTTGTGGTGGGCCTCCTGGCCCACCACAACAGGCCTCACACTC (5mC at 29): 2130 a.u.
GAGGCCCAACCGCGACAGCCTCCTGGCTGTCGCGGTTGGGCCTCACACTC: 2860 a.u.

Repeated from above (series 2):
F8A: 0.0395
G1W: 1.16
F8V: 0.602
R5A L7A: 0.187
D11T: 1.17
G9H: 0.24
G1N: 1.06
A3L: 0.749
K4V: 1.69
R6G: 0.523
A3D: -0.379
